{"data": "Published values collected from several papers", "Kcnh1": "Kcnh1 (Mus musculus, UniProt Q60603)", "DRD2": "D(2) dopamine receptor (DRD2, Homo sapiens, UniProt P14416)", "Ptger2": "Prostaglandin E2 receptor EP2 subtype (Ptger2, Rattus norvegicus, UniProt Q62928)", "Mc1r": "Melanocyte-stimulating hormone receptor (Mc1r, Mus musculus, UniProt Q01727)", "note": "Protocols differ between the studies behind these lines. “And” joins repeats or separate records; there may be more than shown. Numbers after ± are the reported error.", "sequence of UniProt P14416 (whole entry, looked up)": "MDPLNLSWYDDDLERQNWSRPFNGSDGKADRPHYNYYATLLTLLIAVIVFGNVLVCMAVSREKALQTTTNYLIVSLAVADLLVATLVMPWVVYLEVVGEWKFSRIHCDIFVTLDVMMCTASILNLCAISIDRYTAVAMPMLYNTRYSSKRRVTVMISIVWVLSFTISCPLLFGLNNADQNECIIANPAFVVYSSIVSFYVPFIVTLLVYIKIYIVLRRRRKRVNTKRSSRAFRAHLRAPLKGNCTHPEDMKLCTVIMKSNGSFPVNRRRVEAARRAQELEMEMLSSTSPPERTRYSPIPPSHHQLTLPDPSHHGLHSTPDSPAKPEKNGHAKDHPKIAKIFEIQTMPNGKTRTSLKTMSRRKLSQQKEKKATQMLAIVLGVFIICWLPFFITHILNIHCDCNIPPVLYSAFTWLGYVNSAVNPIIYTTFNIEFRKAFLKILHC", "sequence of UniProt Q01727 (whole entry, looked up)": "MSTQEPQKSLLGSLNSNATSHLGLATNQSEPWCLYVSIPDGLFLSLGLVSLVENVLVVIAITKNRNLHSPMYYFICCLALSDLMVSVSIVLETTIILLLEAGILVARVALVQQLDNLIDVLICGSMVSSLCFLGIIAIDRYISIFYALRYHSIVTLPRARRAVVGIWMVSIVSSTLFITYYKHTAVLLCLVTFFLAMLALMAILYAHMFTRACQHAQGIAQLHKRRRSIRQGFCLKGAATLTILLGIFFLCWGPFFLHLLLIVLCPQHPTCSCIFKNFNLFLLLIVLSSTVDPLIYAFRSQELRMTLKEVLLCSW", "sequence of UniProt Q62928 (whole entry, looked up)": "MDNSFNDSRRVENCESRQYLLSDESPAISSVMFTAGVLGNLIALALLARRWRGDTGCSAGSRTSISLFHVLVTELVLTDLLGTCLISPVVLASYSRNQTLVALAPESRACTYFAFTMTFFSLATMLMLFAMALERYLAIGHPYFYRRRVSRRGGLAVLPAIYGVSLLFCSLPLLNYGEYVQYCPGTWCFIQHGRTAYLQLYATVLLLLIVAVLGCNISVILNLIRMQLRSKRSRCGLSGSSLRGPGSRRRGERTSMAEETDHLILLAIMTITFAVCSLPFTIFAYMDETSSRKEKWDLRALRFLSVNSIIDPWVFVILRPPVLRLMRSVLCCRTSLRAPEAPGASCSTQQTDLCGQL", "sequence of UniProt Q60603 (whole entry, looked up)": "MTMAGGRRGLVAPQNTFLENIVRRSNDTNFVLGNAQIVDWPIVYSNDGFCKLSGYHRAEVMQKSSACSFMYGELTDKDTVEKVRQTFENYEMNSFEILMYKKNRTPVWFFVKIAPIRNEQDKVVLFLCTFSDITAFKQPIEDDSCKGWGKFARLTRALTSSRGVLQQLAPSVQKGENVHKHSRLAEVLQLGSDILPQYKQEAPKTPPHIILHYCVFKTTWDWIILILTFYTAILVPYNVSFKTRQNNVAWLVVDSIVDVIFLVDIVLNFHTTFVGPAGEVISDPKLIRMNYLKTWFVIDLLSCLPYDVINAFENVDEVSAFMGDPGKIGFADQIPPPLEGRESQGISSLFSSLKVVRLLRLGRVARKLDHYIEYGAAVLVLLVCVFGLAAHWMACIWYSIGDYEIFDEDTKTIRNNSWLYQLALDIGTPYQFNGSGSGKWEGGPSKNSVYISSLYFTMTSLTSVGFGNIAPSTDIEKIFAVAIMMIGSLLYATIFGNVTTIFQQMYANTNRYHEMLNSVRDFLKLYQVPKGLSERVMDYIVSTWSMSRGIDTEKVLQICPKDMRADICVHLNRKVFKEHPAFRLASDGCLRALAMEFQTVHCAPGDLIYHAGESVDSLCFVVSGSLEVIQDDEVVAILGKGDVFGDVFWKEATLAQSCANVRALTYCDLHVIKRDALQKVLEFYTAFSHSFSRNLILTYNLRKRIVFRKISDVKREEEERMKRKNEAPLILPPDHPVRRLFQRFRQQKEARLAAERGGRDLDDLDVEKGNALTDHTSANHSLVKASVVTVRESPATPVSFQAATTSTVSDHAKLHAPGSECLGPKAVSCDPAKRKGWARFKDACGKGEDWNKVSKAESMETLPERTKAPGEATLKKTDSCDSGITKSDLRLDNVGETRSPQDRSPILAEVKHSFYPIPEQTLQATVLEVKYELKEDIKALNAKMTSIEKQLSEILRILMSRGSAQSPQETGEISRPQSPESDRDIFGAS", "sequence of UniProt O35433 (whole entry, unmodified, looked up)": "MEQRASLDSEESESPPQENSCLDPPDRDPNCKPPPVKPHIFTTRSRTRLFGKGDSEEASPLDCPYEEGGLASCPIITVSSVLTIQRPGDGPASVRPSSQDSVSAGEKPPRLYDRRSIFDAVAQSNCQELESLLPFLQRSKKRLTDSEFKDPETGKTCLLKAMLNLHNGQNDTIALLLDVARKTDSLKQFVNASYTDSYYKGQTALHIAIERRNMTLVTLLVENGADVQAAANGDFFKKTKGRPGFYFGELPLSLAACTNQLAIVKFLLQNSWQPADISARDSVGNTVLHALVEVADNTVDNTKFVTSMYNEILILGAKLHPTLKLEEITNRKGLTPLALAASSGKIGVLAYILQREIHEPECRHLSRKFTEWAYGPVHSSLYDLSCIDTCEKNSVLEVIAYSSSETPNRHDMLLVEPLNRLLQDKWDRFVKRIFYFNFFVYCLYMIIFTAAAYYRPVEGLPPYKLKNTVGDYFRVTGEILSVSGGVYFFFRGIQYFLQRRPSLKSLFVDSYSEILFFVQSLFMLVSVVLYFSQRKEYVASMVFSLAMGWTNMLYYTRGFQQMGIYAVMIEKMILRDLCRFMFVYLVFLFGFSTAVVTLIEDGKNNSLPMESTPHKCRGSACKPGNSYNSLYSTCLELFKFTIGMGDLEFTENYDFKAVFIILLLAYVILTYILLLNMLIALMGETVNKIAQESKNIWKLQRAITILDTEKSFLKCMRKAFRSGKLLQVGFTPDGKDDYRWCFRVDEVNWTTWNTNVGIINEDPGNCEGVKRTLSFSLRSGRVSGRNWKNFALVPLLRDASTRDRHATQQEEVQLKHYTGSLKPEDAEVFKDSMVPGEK", "sequence of UniProt Q63371 (whole entry, looked up)": "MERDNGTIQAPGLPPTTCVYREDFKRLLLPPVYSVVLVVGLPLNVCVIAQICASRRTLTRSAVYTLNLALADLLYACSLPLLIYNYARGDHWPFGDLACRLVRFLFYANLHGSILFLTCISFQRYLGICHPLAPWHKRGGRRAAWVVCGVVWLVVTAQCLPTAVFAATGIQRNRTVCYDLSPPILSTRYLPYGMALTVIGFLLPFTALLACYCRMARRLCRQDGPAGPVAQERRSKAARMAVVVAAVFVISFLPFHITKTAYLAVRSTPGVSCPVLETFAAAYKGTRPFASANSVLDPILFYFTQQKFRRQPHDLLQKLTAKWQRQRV", "sequence of UniProt P23921 (whole entry, looked up)": "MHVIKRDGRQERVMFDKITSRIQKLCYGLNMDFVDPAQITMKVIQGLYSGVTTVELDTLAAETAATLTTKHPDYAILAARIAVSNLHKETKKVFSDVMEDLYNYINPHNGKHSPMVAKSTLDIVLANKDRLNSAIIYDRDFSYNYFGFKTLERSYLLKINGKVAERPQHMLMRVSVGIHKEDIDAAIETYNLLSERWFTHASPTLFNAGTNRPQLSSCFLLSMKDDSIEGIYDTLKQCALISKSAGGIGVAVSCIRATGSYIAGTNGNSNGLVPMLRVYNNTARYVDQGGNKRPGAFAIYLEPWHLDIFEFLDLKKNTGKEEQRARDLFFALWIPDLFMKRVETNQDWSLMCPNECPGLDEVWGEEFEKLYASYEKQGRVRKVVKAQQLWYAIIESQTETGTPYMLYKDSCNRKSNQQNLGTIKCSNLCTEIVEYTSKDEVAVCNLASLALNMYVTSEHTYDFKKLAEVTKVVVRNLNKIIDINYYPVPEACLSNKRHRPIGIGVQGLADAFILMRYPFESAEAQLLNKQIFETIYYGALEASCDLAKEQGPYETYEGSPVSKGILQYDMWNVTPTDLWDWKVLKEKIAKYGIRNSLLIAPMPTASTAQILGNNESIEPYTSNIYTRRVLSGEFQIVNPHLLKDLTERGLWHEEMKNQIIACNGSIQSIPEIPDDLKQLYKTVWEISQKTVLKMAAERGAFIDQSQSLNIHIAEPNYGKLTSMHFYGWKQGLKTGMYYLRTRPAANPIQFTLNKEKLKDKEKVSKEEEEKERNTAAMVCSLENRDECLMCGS", "sequence of UniProt P11473 (whole entry, looked up)": "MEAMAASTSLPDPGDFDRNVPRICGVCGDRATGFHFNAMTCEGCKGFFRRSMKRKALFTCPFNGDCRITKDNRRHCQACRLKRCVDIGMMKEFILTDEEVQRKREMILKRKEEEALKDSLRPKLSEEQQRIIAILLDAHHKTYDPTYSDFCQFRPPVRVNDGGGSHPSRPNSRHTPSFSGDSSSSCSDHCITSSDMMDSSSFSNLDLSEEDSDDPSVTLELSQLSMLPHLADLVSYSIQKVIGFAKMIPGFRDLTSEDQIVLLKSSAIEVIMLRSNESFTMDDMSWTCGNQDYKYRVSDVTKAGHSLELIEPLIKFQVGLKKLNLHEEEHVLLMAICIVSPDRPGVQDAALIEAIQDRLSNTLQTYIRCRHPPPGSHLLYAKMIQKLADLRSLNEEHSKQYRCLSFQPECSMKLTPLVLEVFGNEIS", "sequence of UniProt Q6B856 (whole entry, looked up)": "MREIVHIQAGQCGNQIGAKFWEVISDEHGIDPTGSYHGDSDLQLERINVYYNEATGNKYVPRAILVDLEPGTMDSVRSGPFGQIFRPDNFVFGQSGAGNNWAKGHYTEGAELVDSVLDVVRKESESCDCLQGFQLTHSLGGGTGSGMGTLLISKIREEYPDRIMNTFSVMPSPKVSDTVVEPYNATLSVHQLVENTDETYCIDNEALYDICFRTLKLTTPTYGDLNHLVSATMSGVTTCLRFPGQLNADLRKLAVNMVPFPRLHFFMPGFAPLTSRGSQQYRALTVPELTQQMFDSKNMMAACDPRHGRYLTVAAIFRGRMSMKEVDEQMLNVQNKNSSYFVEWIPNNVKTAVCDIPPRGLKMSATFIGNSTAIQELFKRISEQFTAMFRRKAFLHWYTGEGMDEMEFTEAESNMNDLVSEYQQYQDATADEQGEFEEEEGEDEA"}
{"Substance": "O=c1cc(-c2ccc(O)c(O)c2)oc2cc(O)cc(O)c12", "target": "Kcnh1", "test": "deactivation time constant, inside-out patch clamp", "system": "Xenopus oocytes", "EC50": "8700 ± 800 nM"}
{"Substance": "BP(=O)(OC[C@H]1O[C@@H](n2cnc3c(N)ncnc32)[C@H](O)[C@@H]1O)OP(=O)(O)OP(=O)(O)OC[C@H]1O[C@@H](n2cnc3c(N)ncnc32)[C@H](O)[C@@H]1O (stereo partly drawn)", "target": "P2Y purinoceptor 6 (Rattus norvegicus, UniProt Q63371)", "test": "intracellular calcium rise, agonist", "system": "1321-N1 transfected with rat P2Y6", "setting": "37 °C", "EC50": "> 100000 nM"}
{"Substance": "Cc1ccc2cccc(N3CCN(CCCCOc4ccc5sc(C(C)C)nc5c4)CC3)c2n1", "target": "DRD2", "test": "cAMP, agonist, luciferase", "EC50": "8.3 nM and < 10 nM"}
{"Substance": "CCCCCC(O)C=CC1CCC(=O)N1CCCCCCC(=O)O (stereo not drawn)", "target": "Ptger2", "test": "reporter gene, agonist", "EC50": "2410 nM"}
{"Substance": "6-bromoindirubin-3-oxime", "target": "PGC-1α/ERRα (human)", "test": "reporter gene, agonist, luciferase reporter", "EC50": "1190 nM"}
{"Substance": "CCOC(=O)NC(=O)C(c1ccccc1)c1ccccc1", "target": "Grm1 (Rattus norvegicus, UniProt P23385)", "test": "calcium response, positive allosteric modulator", "system": "BHK expressing mGluR1a", "setting": "added: glutamate EC20", "EC50": "224 ± 32.6 nM"}
{"Substance": "Cc1nc2cc(OCCCCN3CCCN(c4cccc(Cl)c4Cl)CC3)ccc2s1", "target": "DRD2", "test": "cAMP, agonist, luciferase", "EC50": "1.9 nM"}
{"Substance": "CSCC[C@H](NC(=O)[C@H](CO)NC(=O)[C@H](C)NC(=O)[C@H](CO)NC(C)=O)C(=O)N[C@@H](CCC(=O)O)C(=O)N[C@@H](Cc1c[nH]cn1)C(=O)N[C@@H](Cc1ccccc1)C(=O)N[C@@H](CCCNC(=N)N)C(=O)N[C@@H](Cc1c[nH]c2ccccc12)C(=O)NCC(=O)N[C@@H](CCCCN)C(=O)N1CCC[C@H]1C(=O)N[C@H](C(N)=O)C(C)C", "target": "Mc1r", "EC50": "220 ± 78 nM"}
{"Substance": "O=c1c(O)c(-c2ccc(O)c(O)c2)oc2cc(O)ccc12", "target": "Kcnh1", "test": "deactivation time constant, inside-out patch clamp", "system": "Xenopus oocytes", "EC50": "6600 ± 3700 nM"}
{"Substance": "CCCCC[C@H](O)/C=C/[C@H]1CC(F)(F)C(=O)N1CCCCCCC(=O)O", "target": "Ptger2", "test": "cAMP, agonist", "EC50": "> 10000 nM"}
{"Substance": "CCC1=C(O)c2c(oc(-c3csc4cc(O)ccc34)cc2=O)C(CC)(CC)C1=O", "target": "Tubulin alpha-1B chain/TUBB2B (Bos taurus, UniProt P81947+Q6B856)", "EC50": "5500 nM"}
{"Substance": "BzATP", "target": "P2X purinoceptor 7 (P2rx7, Rattus norvegicus, UniProt Q64663)", "test": "ion current, agonist, two-electrode voltage clamp", "system": "Xenopus laevis oocytes", "EC50": "1200 ± 200 nM"}
{"Substance": "CCCC[C@H](NC(=O)[C@H](CO)NC(=O)[C@H](Cc1ccc(O)cc1)NC(=O)[C@H](CO)NC(C)=O)C(=O)N[C@@H](CCC(=O)O)C(=O)N[C@@H](Cc1c[nH]cn1)C(=O)N[C@@H](C)C(=O)N[C@@H](CCCNC(=N)N)C(=O)N[C@@H](Cc1c[nH]c2ccccc12)C(=O)NCC(=O)N[C@@H](CCCCN)C(=O)N1CCC[C@H]1C(=O)N[C@H](C(N)=O)C(C)C", "target": "Mc1r", "EC50": "54 ± 21 nM"}
{"Substance": "C=C1/C(=C\\C=C2/CCC[C@]3(C)[C@@H]([C@H](C)CC(=O)O)CC[C@@H]23)C[C@@H](O)C[C@@H]1O", "target": "Vitamin D3 receptor (VDR, Homo sapiens, UniProt P11473)", "test": "reporter gene, agonist, luciferase", "EC50": "2890 nM"}
{"Substance": "CSCC[C@H](NC(=O)[C@H](C)NC(=O)[C@H](Cc1ccc(O)cc1)NC(=O)[C@H](CO)NC(C)=O)C(=O)N[C@@H](CCC(=O)O)C(=O)N[C@@H](Cc1c[nH]cn1)C(=O)N[C@@H](Cc1ccccc1)C(=O)N[C@@H](CCCNC(=N)N)C(=O)N[C@@H](Cc1c[nH]c2ccccc12)C(=O)NCC(=O)N[C@@H](CCCCN)C(=O)N1CCC[C@H]1C(=O)N[C@H](C(N)=O)C(C)C", "target": "Mc1r", "EC50": "800 ± 130 nM"}
{"Substance": "Cc1nc2cc(OCCCCN3CCN(c4cccc5c4OCCO5)CC3)ccc2s1", "target": "DRD2", "test": "cAMP, agonist, luciferase", "EC50": "0.64 nM"}
{"Substance": "CCCC[C@H](NC(=O)[C@H](CO)NC(=O)[C@H](Cc1ccc(O)cc1)NC(=O)[C@H](CO)NC(C)=O)C(=O)N[C@@H](CCC(=O)O)C(=O)N[C@@H](Cc1c[nH]cn1)C(=O)N[C@H](Cc1ccccc1)C(=O)N[C@@H](CCCNC(=N)N)C(=O)N[C@@H](Cc1c[nH]c2ccccc12)C(=O)NCC(=O)N[C@@H](CCCCN)C(=O)N[C@@H](C)C(=O)N[C@H](C(N)=O)C(C)C", "target": "Mc1r", "EC50": "0.096 ± 0.034 nM"}
{"Substance": "Nc1nc(F)nc2c1ncn2[C@@H]1O[C@H](COP(=O)(O)OP(=O)(O)O)[C@@H](O)[C@@H]1O", "target": "Ribonucleoside-diphosphate reductase large subunit (Homo sapiens, UniProt P23921)", "EC50": "5200 ± 1200 nM"}
{"Substance": "CCCCCCCC(=O)OC[C@H](COP(=O)(O)O[C@@H]1[C@H](O)[C@H](O)[C@@H](OP(=O)(O)O)[C@H](OP(=O)(O)O)[C@H]1O)OC(=O)CCCCCCC", "target": "Trpv1 (Rattus norvegicus, UniProt O35433, R721A)", "test": "agonist, inside-out patch clamp", "system": "plasma membrane inner leaflet", "EC50": "~0.04 mol %"}
{"Substance": "Cc1nc(N)sc1CCCNC(=N)NCCCCCCCCCCCCNC(=N)N", "target": "HRH3 (Homo sapiens, UniProt Q9Y5N1)", "test": "GTPγS binding, agonist", "setting": "cell membranes", "EC50": "34700 nM"}
{"Substance": "Oc1c(CN2CCN(c3ccccn3)CC2)cc(Cl)c2cccnc12", "target": "DRD2", "test": "cAMP, agonist, luciferase", "EC50": "102 nM and 46 nM"}
{"Substance": "CCCCc1cn2c(n1)c(N)nc1ccccc12", "target": "TLR8 (Homo sapiens, UniProt Q9NR97)", "test": "reporter gene, agonist", "EC50": "7990 nM"}
{"Substance": "CCCC[C@H](NC(=O)[C@H](CO)NC(=O)[C@H](Cc1ccc(O)cc1)NC(=O)[C@H](CO)NC(C)=O)C(=O)N[C@@H](CCC(=O)O)C(=O)N[C@@H](C)C(=O)N[C@H](Cc1ccccc1)C(=O)N[C@@H](CCCNC(=N)N)C(=O)N[C@@H](Cc1c[nH]c2ccccc12)C(=O)NCC(=O)N[C@@H](CCCCN)C(=O)N1CCC[C@H]1C(=O)N[C@H](C(N)=O)C(C)C", "target": "Mc1r", "EC50": "0.025 ± 0.001 nM"}
{"Substance": "CN(C)CCC(=O)Nc1ccc(NC(=O)c2cccc(NC(=O)Nc3cccc(C(=O)Nc4ccc(NC(=O)CCN(C)C)cc4)c3)c2)cc1", "target": "telomerase", "test": "inhibitor, TRAP-LIG", "how to read": "inactive up to solubility limit", "EC50": "> 50000 nM"}
{"note": "Repeated from above:"}
{"Substance": "Cc1nc(N)sc1CCCNC(=N)NCCCCCCCCCCCCNC(=N)N", "target": "HRH3 (Homo sapiens, UniProt Q9Y5N1)", "test": "GTPγS binding, agonist", "setting": "cell membranes", "EC50": "34700 nM"}
{"Substance": "Oc1c(CN2CCN(c3ccccn3)CC2)cc(Cl)c2cccnc12", "target": "DRD2", "test": "cAMP, agonist, luciferase", "EC50": "102 nM and 46 nM"}
{"Substance": "CCCCc1cn2c(n1)c(N)nc1ccccc12", "target": "TLR8 (Homo sapiens, UniProt Q9NR97)", "test": "reporter gene, agonist", "EC50": "7990 nM"}
{"Substance": "CCCC[C@H](NC(=O)[C@H](CO)NC(=O)[C@H](Cc1ccc(O)cc1)NC(=O)[C@H](CO)NC(C)=O)C(=O)N[C@@H](CCC(=O)O)C(=O)N[C@@H](C)C(=O)N[C@H](Cc1ccccc1)C(=O)N[C@@H](CCCNC(=N)N)C(=O)N[C@@H](Cc1c[nH]c2ccccc12)C(=O)NCC(=O)N[C@@H](CCCCN)C(=O)N1CCC[C@H]1C(=O)N[C@H](C(N)=O)C(C)C", "target": "Mc1r", "EC50": "0.025 ± 0.001 nM"}
